Assay results collected from several papers.
Numbers after ± are the reported error.
Organism: Plasmodium falciparum

| Compound | read-out | technique | cell line | strain | time | setting | EC50 [nM] |
| --- | --- | --- | --- | --- | --- | --- | --- |
| Cn1nc2c(=O)n(C3CC3)ncc2c1[C@](O)(c1ccc(C(F)(F)F)c(Cl)c1)C1CC1 | parasite growth |  |  | 3D7 |  |  | 1.9 |
| COc1ccc(Nc2ccnc3ccc(-c4ccc(S(=O)(=O)N5CCOCC5)cc4)cc23)cc1Cl | parasite growth | SYBR Green |  | W2 |  |  | 540 |
| Cc1nnc(-c2ccc3ccn(CC(=O)Nc4ccccc4Cl)c3c2)o1 | cytosolic Na+ increase rate | SBFI fluorescence |  | 3D7 |  | isolated trophozoites | ~400 |
| O=S(=O)(c1ccc(-c2ccc3ncccc3c2)cc1)N1CCOCC1 | parasite growth | SYBR Green |  | D6 |  |  | > 20000 |
| COCC(=O)N1CCC[C@H](C(=O)NCc2nc(-c3ccncc3)cs2)C1 |  | SYBR Green growth | asexual blood-stage parasites | 3D7 | 72 h |  | 190 ± 40 |
| O=S(=O)(c1ccc(-c2ccc3nccc(Nc4cncs4)c3c2)cc1)N1CCOCC1 | parasite growth | SYBR Green |  | TM91C235 |  |  | > 20000 |
| COCC(=O)N1CCCC(C)(C(=O)NCc2nc(-c3ccccc3)cs2)C1 (racemic) |  | SYBR Green growth | asexual blood-stage parasites | 3D7 | 72 h |  | > 5000 |
| O=S(=O)(c1ccc(-c2ccc3nccc(Nc4ccccc4)c3c2)cc1)N1CCOCC1 | parasite growth | SYBR Green |  | D6 |  |  | 190 |
| CCn1cc(C2CC2)c2c(CN3CCCC(F)(F)C3)n(C)nc2c1=O | parasite growth |  |  | 3D7 |  |  | 100 |
| CCc1nnc(Nc2ccnc3ccc(-c4ccc(S(=O)(=O)N5CCOCC5)cc4)cc23)s1 | parasite growth | SYBR Green |  | W2 |  |  | 1900 |
| COCC(=O)N1CCC[C@H](C(=O)NCc2nc(-c3ccc(OC(C)C)cc3)cs2)C1 |  | SYBR Green growth | asexual blood-stage parasites | 3D7 | 72 h |  | 130 ± 21 |
| CCCCN(CCCC)CC(O)c1cc(Cl)cc2c1-c1ccc(Cl)cc1/C2=C/c1ccc(Cl)cc1 (centres unmarked) | gametocyte viability | luciferase |  | stage II-III gametocytes | 48 h |  | 9 |
| CCn1cc(Cl)c2c(Cc3ccc(N4CCN(C)CC4)nc3)n(C)nc2c1=O | parasite growth |  |  | 3D7 |  |  | 2510 |
| CNS(=O)(=O)c1ccccc1Nc1nc(Nc2cc(OC)c(OC)cc2C)ncc1Br | parasite growth | LDH colorimetric |  | 3D7 Hyp1-Nluc | 72 h |  | 150 |
| Cc1cc(Nc2ccnc3ccc(-c4ccc(S(=O)(=O)N5CCOCC5)cc4)cc23)on1 | parasite growth | SYBR Green |  | D6 |  |  | 2200 |
| O=C(NCc1nc(-c2ccccc2)cs1)[C@H]1CCCN(C(=O)c2ccco2)C1 |  | SYBR Green growth | asexual blood-stage parasites | 3D7 | 72 h |  | 380 ± 60 |
| O=S(=O)(c1ccc(-c2ccc3nccc(Nc4ncc(Cl)cn4)c3c2)cc1)N1CCOCC1 | parasite growth | SYBR Green |  | TM91C235 |  |  | 1500 |
| CC(C)(N)COCC(=O)N1CCC[C@H](C(=O)NCc2nc(-c3ccc(C(F)(F)F)cc3)cs2)C1 |  | SYBR Green growth | asexual blood-stage parasites | 3D7 | 72 h |  | 8.4 ± 2.4 |
| CCN1CCN(Cc2ccc(Nc3nc4cc(Oc5ccnc(NC(C)=O)c5)ccc4n3C)cc2C(F)(F)F)CC1 | parasite growth | SYBR Green I |  | Dd2 | 72 h |  | 700 ± 100 |
| CCOCC(=O)N1CCC[C@H](C(=O)NCc2nc(-c3ccc(C#N)cc3)cs2)C1 |  | SYBR Green growth | asexual blood-stage parasites | 3D7 | 72 h |  | 8.1 ± 3 |
| Cc1c(-c2n[nH]c3nc(C(F)(F)F)ccc23)c[nH]c1C(=O)N1CC(F)(F)C1 | parasite growth |  |  | 3D7 |  |  | 200 |
| COCC(=O)N1CCC[C@H](C(=O)NCc2nc(-c3cccnc3)cs2)C1 |  | SYBR Green growth | asexual blood-stage parasites | 3D7 | 72 h |  | 92 ± 12 |
| CC1(C)c2nc(-c3ccc(F)cc3)c(Nc3ccc(F)cc3)n2CCN1C(=O)CN | parasite growth | [3H]hypoxanthine incorporation |  | Dd2 | 72 h |  | 8 |

Repeated from above:
| Compound | read-out | technique | cell line | strain | time | setting | EC50 [nM] |
| --- | --- | --- | --- | --- | --- | --- | --- |
| CC(C)(N)COCC(=O)N1CCC[C@H](C(=O)NCc2nc(-c3ccc(C(F)(F)F)cc3)cs2)C1 |  | SYBR Green growth | asexual blood-stage parasites | 3D7 | 72 h |  | 8.4 ± 2.4 |
| CCN1CCN(Cc2ccc(Nc3nc4cc(Oc5ccnc(NC(C)=O)c5)ccc4n3C)cc2C(F)(F)F)CC1 | parasite growth | SYBR Green I |  | Dd2 | 72 h |  | 700 ± 100 |
| CCOCC(=O)N1CCC[C@H](C(=O)NCc2nc(-c3ccc(C#N)cc3)cs2)C1 |  | SYBR Green growth | asexual blood-stage parasites | 3D7 | 72 h |  | 8.1 ± 3 |
